Measured values of several laboratories.
Lines come from different studies, so protocols differ. ± marks the error that the study gave.
Dihydrofolate reductase: Dihydrofolate reductase (Enterococcus faecalis, UniProt Q834R2)
cathepsin H: cathepsin H (Capra hircus, UniProt A0A452G5L2)
Chain of UniProt Q16539 (whole entry, looked up): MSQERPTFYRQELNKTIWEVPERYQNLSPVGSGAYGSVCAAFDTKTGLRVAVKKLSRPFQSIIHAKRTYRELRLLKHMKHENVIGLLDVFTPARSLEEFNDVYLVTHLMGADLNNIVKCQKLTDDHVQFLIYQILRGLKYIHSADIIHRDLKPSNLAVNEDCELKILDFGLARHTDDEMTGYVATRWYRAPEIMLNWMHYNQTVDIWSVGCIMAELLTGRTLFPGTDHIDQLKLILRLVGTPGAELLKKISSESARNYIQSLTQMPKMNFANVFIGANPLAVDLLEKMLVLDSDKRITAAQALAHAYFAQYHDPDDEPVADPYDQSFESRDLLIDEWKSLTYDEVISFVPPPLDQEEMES
Chain of UniProt Q9ZMY2 (whole entry, looked up): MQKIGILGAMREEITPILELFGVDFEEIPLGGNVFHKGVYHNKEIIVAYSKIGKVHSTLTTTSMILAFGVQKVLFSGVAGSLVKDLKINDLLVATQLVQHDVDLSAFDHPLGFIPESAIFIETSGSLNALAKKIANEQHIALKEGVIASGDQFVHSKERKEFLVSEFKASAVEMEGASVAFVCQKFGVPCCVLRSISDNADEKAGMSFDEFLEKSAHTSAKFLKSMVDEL
Chain of UniProt Q9HCG7 (whole entry, looked up): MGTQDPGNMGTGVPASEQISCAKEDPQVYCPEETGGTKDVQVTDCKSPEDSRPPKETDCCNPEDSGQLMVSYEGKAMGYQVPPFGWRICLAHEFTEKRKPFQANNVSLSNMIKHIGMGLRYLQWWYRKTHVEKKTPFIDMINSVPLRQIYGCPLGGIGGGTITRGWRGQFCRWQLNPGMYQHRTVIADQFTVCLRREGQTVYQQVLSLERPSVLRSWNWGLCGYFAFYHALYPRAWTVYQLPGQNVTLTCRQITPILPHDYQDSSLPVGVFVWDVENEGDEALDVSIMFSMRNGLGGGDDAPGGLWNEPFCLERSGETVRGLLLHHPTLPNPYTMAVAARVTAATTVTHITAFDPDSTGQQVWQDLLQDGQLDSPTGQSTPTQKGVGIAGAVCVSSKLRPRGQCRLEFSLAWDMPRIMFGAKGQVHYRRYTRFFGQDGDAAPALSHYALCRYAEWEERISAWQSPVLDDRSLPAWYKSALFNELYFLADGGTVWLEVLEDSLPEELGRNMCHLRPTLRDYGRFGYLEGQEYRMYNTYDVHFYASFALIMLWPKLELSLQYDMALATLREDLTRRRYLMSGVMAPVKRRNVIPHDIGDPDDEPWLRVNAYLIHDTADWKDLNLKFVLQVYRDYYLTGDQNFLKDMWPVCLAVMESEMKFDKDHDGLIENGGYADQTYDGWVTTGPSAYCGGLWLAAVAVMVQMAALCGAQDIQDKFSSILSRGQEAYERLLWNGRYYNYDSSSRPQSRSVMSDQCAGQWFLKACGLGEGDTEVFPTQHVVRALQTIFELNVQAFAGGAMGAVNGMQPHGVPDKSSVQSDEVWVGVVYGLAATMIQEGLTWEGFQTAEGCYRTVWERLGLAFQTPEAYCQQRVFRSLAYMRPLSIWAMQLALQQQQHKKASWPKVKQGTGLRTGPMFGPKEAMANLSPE
Chain of UniProt P61823 (whole entry, looked up): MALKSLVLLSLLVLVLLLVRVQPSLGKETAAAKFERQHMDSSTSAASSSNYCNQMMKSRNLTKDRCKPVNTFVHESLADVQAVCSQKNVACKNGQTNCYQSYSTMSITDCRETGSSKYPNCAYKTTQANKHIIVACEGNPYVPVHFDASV
Chain of UniProt P31652 (whole entry, looked up): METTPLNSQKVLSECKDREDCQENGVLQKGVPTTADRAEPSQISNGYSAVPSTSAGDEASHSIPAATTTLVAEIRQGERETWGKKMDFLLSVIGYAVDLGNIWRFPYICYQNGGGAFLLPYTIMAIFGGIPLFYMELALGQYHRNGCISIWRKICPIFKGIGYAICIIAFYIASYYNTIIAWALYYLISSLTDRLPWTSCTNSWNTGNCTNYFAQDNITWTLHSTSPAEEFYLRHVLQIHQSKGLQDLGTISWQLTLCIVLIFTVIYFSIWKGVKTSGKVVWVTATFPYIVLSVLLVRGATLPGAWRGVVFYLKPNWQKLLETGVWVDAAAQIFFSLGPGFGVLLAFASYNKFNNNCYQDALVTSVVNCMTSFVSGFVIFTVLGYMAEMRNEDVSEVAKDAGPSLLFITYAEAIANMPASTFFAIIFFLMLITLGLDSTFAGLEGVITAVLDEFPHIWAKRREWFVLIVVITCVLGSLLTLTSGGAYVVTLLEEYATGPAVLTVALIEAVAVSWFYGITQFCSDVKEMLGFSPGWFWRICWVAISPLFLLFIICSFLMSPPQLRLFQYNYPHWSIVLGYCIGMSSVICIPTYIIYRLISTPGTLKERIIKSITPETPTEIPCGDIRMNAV
Chain of UniProt P55212 (whole entry, looked up): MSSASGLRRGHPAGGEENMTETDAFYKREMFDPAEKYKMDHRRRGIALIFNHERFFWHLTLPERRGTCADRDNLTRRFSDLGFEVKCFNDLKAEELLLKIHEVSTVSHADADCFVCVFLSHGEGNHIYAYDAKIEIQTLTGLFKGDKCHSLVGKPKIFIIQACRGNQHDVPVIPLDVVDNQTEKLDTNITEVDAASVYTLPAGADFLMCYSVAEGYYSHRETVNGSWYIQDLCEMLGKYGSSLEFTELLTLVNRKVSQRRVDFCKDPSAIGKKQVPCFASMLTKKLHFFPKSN
Chain of UniProt P54764 (whole entry, looked up): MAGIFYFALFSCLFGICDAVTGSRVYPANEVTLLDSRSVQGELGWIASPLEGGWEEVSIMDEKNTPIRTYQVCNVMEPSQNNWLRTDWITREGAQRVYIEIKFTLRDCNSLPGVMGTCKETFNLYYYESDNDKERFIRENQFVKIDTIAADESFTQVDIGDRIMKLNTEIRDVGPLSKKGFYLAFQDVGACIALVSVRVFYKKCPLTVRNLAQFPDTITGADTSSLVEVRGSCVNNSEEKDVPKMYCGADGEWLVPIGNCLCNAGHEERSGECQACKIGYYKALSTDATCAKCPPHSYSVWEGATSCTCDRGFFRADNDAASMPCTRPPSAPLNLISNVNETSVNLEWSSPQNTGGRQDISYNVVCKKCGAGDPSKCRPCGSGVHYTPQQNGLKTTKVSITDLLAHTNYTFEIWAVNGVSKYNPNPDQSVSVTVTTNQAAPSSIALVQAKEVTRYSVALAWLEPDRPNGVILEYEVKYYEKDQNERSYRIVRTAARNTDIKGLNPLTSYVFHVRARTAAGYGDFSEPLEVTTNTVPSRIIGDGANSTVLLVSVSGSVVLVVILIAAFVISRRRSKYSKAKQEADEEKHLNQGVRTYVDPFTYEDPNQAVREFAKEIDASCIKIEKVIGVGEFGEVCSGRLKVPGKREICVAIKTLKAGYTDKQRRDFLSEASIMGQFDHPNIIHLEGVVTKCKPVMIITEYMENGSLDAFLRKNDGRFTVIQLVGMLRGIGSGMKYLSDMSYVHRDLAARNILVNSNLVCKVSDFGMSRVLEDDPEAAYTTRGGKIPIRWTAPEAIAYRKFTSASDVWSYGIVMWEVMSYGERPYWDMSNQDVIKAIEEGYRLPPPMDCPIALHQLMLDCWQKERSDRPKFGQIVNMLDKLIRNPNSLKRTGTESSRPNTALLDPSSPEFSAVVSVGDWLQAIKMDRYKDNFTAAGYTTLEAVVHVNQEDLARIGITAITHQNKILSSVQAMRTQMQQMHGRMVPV
Chain of UniProt P29320 (whole entry, looked up): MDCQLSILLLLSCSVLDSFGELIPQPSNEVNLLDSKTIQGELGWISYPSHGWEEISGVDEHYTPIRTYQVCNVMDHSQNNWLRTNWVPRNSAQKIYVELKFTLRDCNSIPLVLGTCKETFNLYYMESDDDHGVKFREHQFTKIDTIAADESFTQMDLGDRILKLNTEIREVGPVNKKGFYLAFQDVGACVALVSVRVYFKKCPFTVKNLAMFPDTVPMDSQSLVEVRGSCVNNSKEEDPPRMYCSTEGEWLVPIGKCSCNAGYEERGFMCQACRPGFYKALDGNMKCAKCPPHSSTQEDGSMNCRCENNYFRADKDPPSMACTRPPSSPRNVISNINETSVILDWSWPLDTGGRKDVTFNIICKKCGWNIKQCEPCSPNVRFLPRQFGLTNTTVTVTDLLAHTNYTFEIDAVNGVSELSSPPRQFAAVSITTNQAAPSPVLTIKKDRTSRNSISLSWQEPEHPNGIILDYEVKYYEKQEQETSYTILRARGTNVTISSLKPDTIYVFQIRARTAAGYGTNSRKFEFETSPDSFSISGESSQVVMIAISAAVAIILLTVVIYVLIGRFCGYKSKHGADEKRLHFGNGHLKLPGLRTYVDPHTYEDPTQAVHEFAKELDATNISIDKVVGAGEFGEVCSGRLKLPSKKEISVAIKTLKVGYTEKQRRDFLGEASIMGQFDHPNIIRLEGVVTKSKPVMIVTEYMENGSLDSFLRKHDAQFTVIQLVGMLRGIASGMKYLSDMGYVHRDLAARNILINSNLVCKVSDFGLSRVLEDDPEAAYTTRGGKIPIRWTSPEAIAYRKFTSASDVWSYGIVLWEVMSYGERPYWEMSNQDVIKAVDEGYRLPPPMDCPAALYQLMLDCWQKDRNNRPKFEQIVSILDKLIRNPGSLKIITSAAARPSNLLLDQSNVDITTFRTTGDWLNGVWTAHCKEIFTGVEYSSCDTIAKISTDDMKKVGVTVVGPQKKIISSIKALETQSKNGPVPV
Chain of UniProt P21217 (whole entry, looked up): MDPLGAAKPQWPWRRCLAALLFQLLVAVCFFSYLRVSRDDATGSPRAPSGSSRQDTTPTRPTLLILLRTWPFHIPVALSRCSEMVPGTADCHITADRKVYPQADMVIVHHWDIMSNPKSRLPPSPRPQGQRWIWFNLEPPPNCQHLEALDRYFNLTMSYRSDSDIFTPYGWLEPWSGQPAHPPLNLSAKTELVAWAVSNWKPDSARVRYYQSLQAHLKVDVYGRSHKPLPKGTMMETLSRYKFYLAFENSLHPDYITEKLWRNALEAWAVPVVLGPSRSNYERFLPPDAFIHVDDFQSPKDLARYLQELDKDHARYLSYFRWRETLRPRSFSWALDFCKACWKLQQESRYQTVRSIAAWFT

SMILES	target	test	test system	conditions	Ki [µM]
CCN(CC)c1ccc2c(-c3ccc(S(=O)(=O)NCCCCCC(=O)NCC(O)CN4CCN(CCSC(c5ccc(F)cc5)c5ccc(F)cc5)CC4)cc3S(=O)(=O)[O-])c3ccc(=[N+](CC)CC)cc-3oc2c1 (stereo not shown)	Slc6a4 (Rattus norvegicus, UniProt P31652)	ligand displacement, radioligand	–	cell membranes	3.32
CC(=O)N[C@@H](Cc1c[nH]c2ccccc12)C(=O)N[C@@H](CC(=O)O)C(=O)N[C@@H](CCCNC(=N)N)C(=O)N[C@@H](C)C(=O)N[C@H](C=O)CC(=O)O	Caspase-6 (CASP6, Homo sapiens, UniProt P55212)	enzyme activity, inhibitor, fluorescence	–	pH 7	22.9
Cc1cc(N2CCCCC2)c(NC(=O)c2ccc(-c3cc(O)ccc3C)c(C)c2)cc1F	EPHA4 (Homo sapiens, UniProt P54764)	–	–	–	> 0.25
O=S(=O)(Cc1ccccc1)NCc1cn(CB(O)O)nn1	Beta-lactamase ADC-7 (Acinetobacter baumannii, UniProt Q6DRA1)	enzyme activity, inhibitor	–	together with: nitrocefin	0.77 ± 0.08
COc1ccc(CC2c3ccccc3C=NN2C(=O)/C=C/c2cc(Cc3cnc(N)nc3N)cc(OC)c2OC)cc1 (stereo not shown)	Dihydrofolate reductase	enzyme activity, inhibitor	–	together with: dihydrofolate (Km 10.9 µM)	0.0067
CCCSC[C@H]1CN(Cc2c[nH]c3c(N)ncnc23)C[C@@H]1O	Aminodeoxyfutalosine nucleosidase (Helicobacter pylori, UniProt Q9ZMY2)	enzyme activity, inhibitor	–	initial	5.8e-05 ± 1.4e-05
COc1ccc(/C=C/C(=O)c2ccccc2)cc1	cathepsin H	competitive inhibitor, Lineweaver-Burk plot	goat liver enzyme	pH 7.0, together with: Leu-βNA substrate	138 ± 0.1
CC(C)C[C@@H]1NC(=O)[C@H](C)NC(=O)[C@H](CC2CCN(C(=N)N)CC2)NC(=O)[C@H](CO)NC(=O)[C@H](CCCNC(=N)N)NC(=O)[C@H](CCCCN)NC(=O)[C@@H]2CCCN2C(=O)[C@@H](N)CSSC[C@@H](C(=O)O)NC(=O)[C@H](Cc2ccccc2)NC1=O	Kallikrein-1 (KLK1, Homo sapiens, UniProt P06870)	enzyme activity, inhibitor, absorbance	–	pH 7.4	0.384
CC(OCCCCCN1C[C@H](O)[C@@H](O)[C@H](O)[C@H]1CO)C(C)(C)C (stereo partly shown)	Beta-glucosidase (GBA2, Homo sapiens, UniProt Q9HCG7)	enzyme activity, inhibitor	HEK293T overexpressing homogenate	together with: 4MU-β-D-glucopyranoside	0.0059
CC[C@H](C)[C@H](NC(=O)[C@H](CCC(N)=O)NC(=O)[C@H](CCCNC(=N)N)NC(=O)[C@H](CC(C)C)NC(=O)[C@@H](NC(=O)[C@H](CCCCN)NC(=O)[C@H](Cc1ccc(O)cc1)NC(=O)[C@H](CCCCN)NC(=O)[C@H](CC(=O)O)NC(=O)[C@H](CCCNC(=N)N)NC(=O)CNC(=O)[C@H](CC(C)C)NC(=O)[C@@H](N)CCCNC(=N)N)[C@@H](C)O)C(=O)N[C@@H](CCCNC(=N)N)C(=O)N[C@@H](CCC(N)=O)C(=O)O	Lrrk2 (Mus musculus, UniProt Q5S006)	enzyme activity, inhibitor, TR-FRET	–	Ki,ea, together with: PLK-peptide varied	540 ± 50
CS(=O)(=O)NS(=O)(=O)CCCS(=O)(=O)NS(=O)(=O)CCCS(=O)(=O)NS(=O)(=O)CCCS(=O)(=O)NS(C)(=O)=O	RNASE1 (Bos taurus, UniProt P61823)	enzyme activity, inhibitor, fluorescence	–	–	8300
COc1ccccc1/C=C/C(=O)c1ccccc1	cathepsin H	competitive inhibitor, Lineweaver-Burk plot	goat liver enzyme	pH 7.0, together with: Leu-βNA substrate	100 ± 0.2
CNC(=O)C1CCN(c2cc(C)c(F)cc2NC(=O)c2ccc(-c3cc(O)ccc3C)c(C)c2)CC1	EPHA3 (Homo sapiens, UniProt P29320)	cell-free assay, TR-FRET	–	–	0.045
Nc1nc2c(ncn2[C@@H]2O[C@H](COP(=O)(O)OP(=O)(O)O[C@H]3O[C@@H](CNC(=O)c4ccc(-c5ccccc5)cc4)[C@@H](O)[C@@H](O)[C@@H]3F)[C@@H](O)[C@H]2O)c(=O)[nH]1	FUT3 (Homo sapiens, UniProt P21217)	enzyme activity, inhibitor	–	–	28.8
COc1cc(Cc2cnc(N)nc2N)cc(/C=C/C(=O)N2N=Cc3ccccc3C2c2ccc(F)cc2)c1OC (stereo not shown)	Dihydrofolate reductase	enzyme activity, inhibitor	–	together with: dihydrofolate (Km 10.9 µM)	0.0056
CC(C)(C)OC(=O)C1=C[C@@](C)(C(=O)OCC#Cc2ccncc2)CCC1=O	MAPK14 (Homo sapiens, UniProt Q16539)	ligand displacement, FP	–	–	1.5

A few entries again:
SMILES	target	test	test system	conditions	Ki [µM]
COc1ccc(/C=C/C(=O)c2ccccc2)cc1	cathepsin H	competitive inhibitor, Lineweaver-Burk plot	goat liver enzyme	pH 7.0, together with: Leu-βNA substrate	138 ± 0.1
CC(C)C[C@@H]1NC(=O)[C@H](C)NC(=O)[C@H](CC2CCN(C(=N)N)CC2)NC(=O)[C@H](CO)NC(=O)[C@H](CCCNC(=N)N)NC(=O)[C@H](CCCCN)NC(=O)[C@@H]2CCCN2C(=O)[C@@H](N)CSSC[C@@H](C(=O)O)NC(=O)[C@H](Cc2ccccc2)NC1=O	Kallikrein-1 (KLK1, Homo sapiens, UniProt P06870)	enzyme activity, inhibitor, absorbance	–	pH 7.4	0.384
